Measured values of several laboratories.
Protocols differ between the studies behind these lines. “And” joins repeats or separate records; there may be more than shown. Numbers after ± are the reported error.

SMILES	tested on	assay	system	conditions	how to read	measurement	result
Oc1cccc2c1[nH]c1c(C3=CC4(O)CCC=CCCCCN5CCC3C3(CC6C=CCCCCN6C43)C5)nccc12 (single isomer, unassigned; (+))	LLC-PK11	cell growth or viability, neutral red		48 h		IC50	1.25 µg/mL
CCCC(=O)[O][Pt]([Cl])([Cl])[O]C(=O)CCC.N.N	A549/DDP cisplatin-resistant	MTT		48 h, non-transfected		IC50	18.3 ± 4.02 µM
COC(=O)C1=C(C)Oc2ccc(Br)cc2C1C(C(C)=O)C(=O)OC (centres unmarked)	3T3-L1	cell growth or viability, MTT		72 h		IC50	> 100 µg/mL
CN1CCC(N[C@H]2CCc3[nH]c4c(C(N)=O)ccc(-c5ccccc5Cl)c4c3C2)CC1	BGC-823	cell growth or viability				IC50	1.48 µM
CCCCCC(=O)Oc1c(C)c(OC)c2c(c1C)OC(=O)[C@@H](CCCC)[C@]2(O)/C=C/c1ccccc1 (relative stereo)	FaDu	cell growth or viability, SRB		72 h		IC50	> 50 µM
CCOc1cncc(-c2ccc(NC(=O)C3(c4ccnc(NS(=O)(=O)C5CC5)n4)CCOCC3)nc2)n1	lung cancer	cell viability, CellTiter-Glo	DMSO 0.1%	72 h, line code 289		IC50	10 µM
C=CC(=O)N1CCCC(n2c(=O)c3ncccc3n(Cc3ccc(Oc4ccccc4)cc3)c2=O)C1 (centres unmarked)	KARPAS-299	cell growth or viability, MTT		72 h		IC50	20 µM
C=C(C)C(C)(C)CCC(C)C1CCC2(C)C3CCC4C(C)C(O)CCC45CC35CCC12C (centres unmarked)	T47D breast cancer	cell viability, MTT	DMEM with 10% FBS	48 h		IC50	> 200 µM
N#Cc1c(N)nc2c(c1-c1ccc(CO)o1)CCc1cc(O)ccc1-2	HBP-ALL	cell viability, CellTiter-Glo			no inhibition at 100 µM	IC50	8.1 µM
CC(C)(C)c1cnc(CSc2cnc(NC(=O)C3CCN(C(=O)CCCCCCN4Cc5cc6c(cc5C4)C(=O)N(C4CCC(=O)NC4=O)C6=O)CC3)s2)o1 (centres unmarked)	RH5 rhabdomyosarcoma	cell viability, MTT				IC50	0.0125 ± 0.0071 µM
CC1CN(CCOCCSc2ccc(Cl)cc2)CC(C)O1.O=C(O)C(=O)O (centres unmarked)	Trypanosoma cruzi	reporter mRNA translation, inhibitor, item: Renilla luciferase mRNA	cell-free extract	concentration not given, test 2	reference: positive over negative control	translation activity	113% and 107%
Cc1ccc(-n2cc(CSc3nc4ccccc4n3Cc3cn(-c4ccc(C)cc4)nn3)nn2)cc1	HEK293	cell viability, MTT				IC50	30.2 µg/mL
CC[C@H]1CC[C@H]2[C@@H]3C[C@@H](O)[C@@]4(O)C[C@H](N)CC[C@]4(C)[C@H]3CC[C@]12C	BV-2	cell count, high content imaging		24 h, uptake, myelin membrane debris, pHrodo		IC50	1 µM
CNS(=O)(=O)Nc1nccc(Cc2c(C)c3ccc(Oc4ncccc4F)cc3oc2=O)c1F	MEC1	cell viability		7 days		IC50	> 1 µM
O=C(CCNc1cccc2c1C(=O)N(C1CCC(=O)NC1=O)C2=O)NCCOCCOCCOCCN1CCC(CNC(=O)c2cccc(-c3noc(C(F)(F)F)n3)c2)(c2nc(-c3ccccc3)cs2)CC1 (centres unmarked)	JeKo-1 CRBN knockout	cell proliferation		168 h		IC50	16.8 ± 3.37 µM
C=C1C(=O)OC2C1CCC(C)(O)C13C=CC(C)(C21)C1(C3)C(=O)OC2C3C(C)C(=O)CC3C(=C)CC(OC(C)=O)C21 (centres unmarked)	AML12	lipid accumulation, Nile Red staining		added: palmitate/oleate		IC50	4.59 ± 0.58 µM

SMILES	tested on	assay	system	conditions	how to read	measurement	result
CCCCCC(=O)[O][Pt]([Cl])([Cl])[O]C(=O)CCCCC.N.N	A549/DDP cisplatin-resistant	MTT		48 h, non-transfected		IC50	6.05 ± 5.09 µM
CCCCCC(=O)Oc1c(C)c(OC)c2c(/C=C/c3ccccc3)c(CCCC)c(=O)oc2c1C	FaDu	cell growth or viability, SRB		72 h		IC50	> 50 µM
CC1(C)CC(=O)C(C2C3=C(CC(C)(C)CC3=O)Oc3ccc4ccccc4c32)=C(O)C1 (centres unmarked)	3T3-L1	cell growth or viability, MTT		72 h		IC50	26.1 µg/mL
COc1cc(-c2cn(C)c(=O)c3cnccc23)cc(OC)c1Cn1ccnc1	Kasumi 1	cell growth or viability, ATP luminescence				IC50	2.9 µM
Cn1ncc(-c2ccc3c(=O)[nH]nc(CN)c3c2)c1-c1c(F)c(Cl)cc(OC2CC2)c1C#N	KARPAS-299	cell viability, inhibitor, CellTiter-Glo		120 h, baseline-subtracted		IC50	0.06 µM
COc1ccc2c(c1)Cc1c-2nc(N)c(C#N)c1-c1ccc(CO)o1	HBP-ALL	cell viability, CellTiter-Glo			no inhibition at 100 µM	IC50	23.2 µM
CC(C)c1ccc(N(C)c2ccc3c(c2)OCC[C@H]3CNc2cnccc2C(=O)O)cc1	JeKo-1	cell growth or viability, ATP luminescence		7 days		IC50	0.0018 µM
O=C(NCCOCCOCCNC(=O)c1cc2ccccc2c2ccccc12)c1cc(C(=O)N2CCNCCNCCNCC2)c(O)c(C(=O)N2CCNCCNCCNCC2)c1	PK-59	cell growth or viability, MTT		24 h		IC50	> 1000 µM
CC[C@H]1CC[C@H]2[C@@H]3C[C@@H](O)[C@@]4(O)C[C@H](N)CC[C@]4(C)[C@H]3CC[C@]12C	BV-2	nuclear intensity, high-content imaging		geometric mean		IC50	1.92 µM
CCCC[C@@H]1NC(=O)[C@@H](CC(C)C)NC(=O)[C@H](CCCCNC(=O)CN2CCN(CC(=O)O)CCN(CC(=O)O)CC2)NC(=O)[C@@H](CO)NC(=O)[C@H](Cc2c[nH]cn2)NC(=O)[C@@H](Cc2c[nH]c3ccccc23)NC1=O [copper-64 labelled]			Balb/c mice, pancreas	intravenous, dose not given		tissue uptake	0.15 ± 0.06 %ID/g
CCCCCCCCCC(=O)Oc1c(C)c(OC)c2c(c1C)OC(=O)C(CCCCCCCC)C2(O)C=Cc1ccccc1 (centres unmarked)	FaDu	cell growth or viability, SRB		72 h		IC50	> 50 µM
COC(=O)N1c2ccc3c(nc(Cc4ccccc4)n3[C@@H]3CCC[C@@H](C(=O)O)C3)c2CC[C@@H]1C	MDA-MB-175-VII	cell growth or viability, ATP luminescence		10 days		IC50	3.61 µM
C[n+]1c(/C=C/c2ccc(N(c3ccccc3)c3ccccc3)cc2)cc(/C=C2\Sc3ccccc3N2CCCN2CCCC2)c2ccccc21	HK-2	cell growth or viability, MTT		36 h		IC50	19.1 µM
C=C1C(=O)OC2C1CCC(C)(O)C13C=CC(C)(C21)C1(C3)C(=O)OC2C3C(C)=CC(=O)C3C(C)CC(OC(C)=O)C21 (centres unmarked)	AML12	lipid accumulation, Nile Red staining		added: palmitate/oleate		IC50	19.5 ± 2.31 µM
CCn1cc(-c2cccc(C(F)(F)F)c2)c2sc(C(=N)NC3CCS(=O)(=O)CC3)cc2c1=O	Kasumi 1	cell growth or viability, ATP luminescence				IC50	4.46 µM
COc1cc(CN(C)CC2CCCN(CCc3ccccc3F)C2)cc(Cl)c1OC (centres unmarked)	Trypanosoma cruzi	reporter mRNA translation, inhibitor, item: Renilla luciferase mRNA	cell-free extract	concentration not given, test 2	reference: positive over negative control	translation activity	93.3% and 129%

Some of these lines once more:
SMILES	tested on	assay	system	conditions	how to read	measurement	result
COc1cc(CN(C)CC2CCCN(CCc3ccccc3F)C2)cc(Cl)c1OC (centres unmarked)	Trypanosoma cruzi	reporter mRNA translation, inhibitor, item: Renilla luciferase mRNA	cell-free extract	concentration not given, test 2	reference: positive over negative control	translation activity	93.3% and 129%
COc1cc(-c2cn(C)c(=O)c3cnccc23)cc(OC)c1Cn1ccnc1	Kasumi 1	cell growth or viability, ATP luminescence				IC50	2.9 µM
CCCCCC(=O)[O][Pt]([Cl])([Cl])[O]C(=O)CCCCC.N.N	A549/DDP cisplatin-resistant	MTT		48 h, non-transfected		IC50	6.05 ± 5.09 µM
